Published values from different studies.
Each numbered part is a random draw from the data of one study; scales do not carry over between parts.

Study 1
Target: RNA binding protein fox-1 homolog 2, RRM domain, GST-SBP tag (RBFOX2, Homo sapiens, UniProt O43251-10, residues 100-194)
Technique: RNA Bind-n-Seq
Molecule type: RNA
Sample: in vitro
Concentration: 365 nM
Notes: natural RNA segment, single round, ends assumed
Baseline: no-protein control
Reading: higher = stronger binding
All sequences stand within: GGGAGUUCUACAGUCCGACGAUC … UGGAAUUCUCGGGUGCCAA
Construct (chain): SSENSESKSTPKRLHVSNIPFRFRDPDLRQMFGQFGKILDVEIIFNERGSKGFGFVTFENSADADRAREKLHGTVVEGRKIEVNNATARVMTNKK
Strand	RBNS enrichment (R)
GGGAAGGUCUCCCACAUUAUGCAAUAAUAAAAUAAGCAUCUGGGUCUUUGCAGCUGUCAGUUGCUCUUUCAACUCUAGGAUCCAUCUUUGGACCAGAAGCCUGGUCUGUG	0.277
CACUUUAUGGGUUCUAGAUGAUGUUUUGACAUGUGCUCAACCUUGAUUUGUUGAUUUAGUUAAAAUAUACUAUUCCUAGAUUUAUUUAACAGUCUUUCUUAAAAUCAGUA	0.464
UGUUUCUUGUAUGGGGCCGUGGCCCUUUUGGUUGUUUUUGGUCAUUUUCUUAAAAACACAACACAACACAAUACAACACAACAGUUUUAAACCUGAAGAUUUCCGCAGUC	0.355
AUGGGAGUGCCAAGGUGGCCAGAUGGUUCCAGGACUACAAUGUCUUUAUUUUUAACUGUUUGCCACUGCUGCCCUCACCCCUGCCCGGCUCUGGAGUACCGUCUGCCCCA	0.913
ACAGAUUGUUGAGCCUACCAUAGGUCAAAAGGACUGGAAUUUUCCUUCUUAACAAGUAUAGUCAUGGCACCACGUAACAUUUUGGUCAAUGACAUUGUAUAAAGGGUGGU	0.341
AGGCAAAAAAUAACGCACUAGUCACUGAAGUUCAUCCUCAGUUACCUCGAUAGGGUAGGUAGAUUCCUAAUAGUGCUGGUGAGCAUCACAAUGCUGUGCAAAGAUUCAAG	0.423
AACCGUCCUAAUUUUUCAUAGACUCUGGCAUCUUACUAACCCAUGUGAGGUUUUCAUUGUUCAUCUUUAUGGUGUUUUGGAUUGGUGUACUGAGAGGGACUUGGUUCAAA	0.448
UUACAGUGCUGCAAAGUUGUGUGCAUCGCUAAAGAGAGCCCCAACCUAUACAGAGAGCAAACAAUGAGAUAAGAGGAACUGUCGCAAAGCUUUCCACUGAAACACAGGUC	0.382
AAUACUUGGAAGGCAGUAAUUGUGAGUGACACCUCAGUUCAUCAACCCCUUAAUAAUAUCAGCUUAAUUUUAAUGACAACUAAAUAUGCUGAAGUGAGGAUUUAGUAUUU	0.531
CCAGUUGUAGCAGGUUUCACUAUUCCUAUGCUGGGGUACACAGUGAGAGUACUCACUUUUCACUUGUCUUGCUCUUAGAUUGGGCCAUGGCUUUCAUCCUGUGUCCCCUG	0.288
AUCAAAAAUCAAAGUGAAAUAAUACCAUCCAGCACUUAACUCUCAGGUCCCAACUAAGUCUGGCCUGAGCUAAUUUAUUUGAGCGCAGAGUGUAAAAUUUAAUUCAAAAU	0.409
UUAACUUUUAAUUUUUUAUAUUUAAAUGUAGACUUUUGACACUUUUAAAAAACAAAAAAUGACAAGAGAGAUGAAAACGUUUGAUUAUUUUCUCAGUGUAUUUUUGUAAA	1.28

Study 2
Target: RING finger protein unkempt homolog, zinc fingers 1-6, GST-SBP tag (UNK, Homo sapiens, UniProt Q9C0B0, residues 30-357)
Sequence of UniProt Q9C0B0 (30-357, looked up): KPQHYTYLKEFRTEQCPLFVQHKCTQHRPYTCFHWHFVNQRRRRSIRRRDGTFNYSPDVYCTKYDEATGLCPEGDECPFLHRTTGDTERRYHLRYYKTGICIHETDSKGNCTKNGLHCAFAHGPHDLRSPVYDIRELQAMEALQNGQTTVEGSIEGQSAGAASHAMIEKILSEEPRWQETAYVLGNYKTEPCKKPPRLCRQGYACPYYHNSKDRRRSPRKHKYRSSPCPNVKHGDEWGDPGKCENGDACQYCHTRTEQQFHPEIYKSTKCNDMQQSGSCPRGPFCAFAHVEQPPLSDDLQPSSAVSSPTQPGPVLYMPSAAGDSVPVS
Technique: RNA Bind-n-Seq
Molecule type: RNA
Sample: in vitro
Concentration: not given
Notes: RNA with constant flanks, human and mouse sites, ends assumed
Baseline: input RNA pool
Reading: higher = stronger binding
All sequences stand within: GGGAGUUCUACAGUCCGACGAUC … CAACAGAGGAUUGAGCAUCA
Strand	bound/input enrichment
CAUCUACUUGGUUCUUGGGUUGGGUCAUAGAUGCUGCCUGGGCUCUACAGUGGGAGUCUGCAACUCUGUGCAAGGAUCUCAUUCUGAGCACUUUAUGUAUGGCCUGCAGGGAAGGAACAC	0.146 ratio
AAAGAUUGAUCUGUGGGCUGGUGAACUUAUCUGGGUCCCAGUCCGAGCAGCAGAGGAGAUUAGCACAGCGCUUGCUGGAGAAUGAUAUCUGUCAAAAGAAACACUUGGAGAGCACUGAGU	0.208 ratio
AAAAGACCAUAUGUUGAUUCUACCUGUGUUCUGUUCCAGCGAAUUGGGAAGUCUCACCAAGCUAGAUUGUCUACCAUCAGCCCAGAACUCUGUAACUUUUCAGAACUGCUAUACUCAAAC	0.25 ratio
CAGUCCCCGUGUCCCAGUGCAGGACGAUGUGAACAAAAACUCAAAGCGGACCCUCUAUUGUAGUUCUUGAUUCUCGAAAUGUGCUAUUAUUGUUUGUCUUUUUUUUUUUUUUUUUAAAGA	1.17 ratio
UUUCUUGUUUUUCUUUCUCCCCCCCCCCCCCUUCAGUUAACUACUUUUUAAUUGCAAUUCUAGGUAAUUGUGCAUCGUGAUGUGAUUGCUUGGCUAUUGUCUGAAUAUUUCCUUUUAAUU	0.962 ratio
GACUUGCUUCUGCAGGCUUGUCCAUUUGGUACUUUAUUAGAUGCCAACUUACAGAAUUCAUUAGAUAAUACCAAUUUUGCAUCUGUGACUCAGCCACAGAAACAGCCAGCUUGGAAAACU	1.75 ratio
GAAAAGAACAUGCAAAAAGUUGAAGAGGAAGGAGAGAUUGUUAUGGUGAAAGAACACCGAGAACUUGAUCGAACUGGAACAAGAAAGGGACACAUUGUCAUCAAGGGUACCUCAGAAAGG	0.253 ratio
AAGCUUGGAGAAGAACCAGGGGAUGAGGUUGAUGUUCCAAAGGAUGAGCUUAGUAUAGAUUUAGGAAUGUUAUUUAUCGGUGGAACCAAACCUCCCUAGAGAGUACUGUGAAAGCUGGCA	22.2 ratio
GUUCGUUUUCACUGCAGGACCAGGCACGAAAGUUAAAACAAAAUGAAGAUUUUUUCUGAAUCUCAUAAAACAGUGUUUGUUGUGGAUCACUGCCCUUAUAUGGCAGAAUCUUGCAGGCAG	0.255 ratio
UGCACACAUUGGUAGACUGUUAUCAUUUGUGGUGGGAACCCAUGUAAAUAAGUAGACUGUAAAGAGAGACUAUCUUGCAUUAUGACUGUAUGAAUUUCUAAGUGCUGUUUGAUUGGGUUU	0.467 ratio
GUGGGCUAUCAUCUUUUUUCCUGUCAUCGGUCAGAAAAAACUUGUCGGAGAUGGAUGGCAUUGGAUUAUGCAGGAAUUUCUAUUGGAAUACUGGGCUGCUAUGUCUCAGGAGUAUUUUAU	0.64 ratio

Study 3
Target: Fragile X messenger ribonucleoprotein 1, C-terminal low-complexity region (Fmr1, Mus musculus, UniProt P35922)
Technique: RNA Bind-n-Seq
Molecule type: RNA
Sample: in vitro
Concentration: 200 nM
Notes: whole 134-nt RNA, ends assumed
Together with: 150 mM LiCl
Baseline: input library
Reading: higher = stronger binding
Library: 7-deaza-guanosine replaces G
All sequences stand within: GGGAGUUCUACAGUCCGACGAUC … UGGAAUUCUCGGGUGUCAAGG
Strand	log2 enrichment
GUCCUGUGCUACACAUCGUAUGUACCGAAUCGGUUUUUGGGGUUUUUGGUUUUUGGGGAAAGUAUUAUGUUACGCCGUUCGGAUCUGCAC	-1.28
AAGUCCUGUGCUACACAUCGUAUGUACCGAAUCGGUUUUGGGUUUUGGGUUUUGGGAAAGUAUUAUGUUACGCCGUUCGGAUCUGCACUU	-1.49
AAGUCCUGUGCUACACAUCGUAUGUACCGAAUCGGGUUUUUGGUUUUUGGUUUUUGGAAAGUAUUAUGUUACGCCGUUCGGAUCUGCACU	-1.69
CAAGUCCUGUGCUACACAUCGUAUGUACCGAAUCGGUUUGGGUUUGGGUUUGGGGAAAGUAUUAUGUUACGCCGUUCGGAUCUGCACUUC	-1.27
AGUCCUGUGCUACACAUCGUAUGUACCGAAUCGGGAAAAAGGAAAAAGGAAAAAGGGGAAAGUAUUAUGUUACGCCGUUCGGAUCUGCAC	-0.651
ACCAUGCAGGUGGGCAUCUUUGGGAAGUGGGGCAAGGGGGGGAUAGGAAAGGGGGUAACACUUUGGGAACAGGUGGUCCCAGGUCGUUUC	1.02
CUCAAGUCCUGUGCUACACAUCGUAUGUACCGAAUCGGAAGGGAAGGGGAAGGGAAAGUAUUAUGUUACGCCGUUCGGAUCUGCACUUCC	-0.0581
UAACUUUAGAGGAGGAUCUGAUGGAUAUGGCAGUGGACGUGGAUUUGGGGAUGGCUAUAAUGGGUAUGGAGGCGGACCUGGAGGUGGCAA	0.247
GUCCUGUGCUACACAUCGUAUGUACCGAAUCGGAAAAAAGGGAAAAAAGGGAAAAAAGGAAAGUAUUAUGUUACGCCGUUCGGAUCUGCA	-0.141
AAGUCCUGUGCUACACAUCGUAUGUACCGAAUCGGUUUUUUUGGAGGUUUUUUUGGAAAGUAUUAUGUUACGCCGUUCGGAUCUGCACUU	-2.04
CUCAAGUCCUGUGCUACACAUCGUAUGUACCGAAUCGGGGUUGGGUUGGGUUGGAAAGUAUUAUGUUACGCCGUUCGGAUCUGCACUUCC	-0.454

Study 4
Target: Sal-like protein 4, full length isoform B (SALL4, Homo sapiens, UniProt Q9UJQ4-2, residues 1-616)
Technique: universal PBM
Molecule type: double-stranded DNA, one strand shown
Sample: in vitro
Concentration: not given
Notes: 8-mer, flanks averaged, mean of replicates
Reading: higher = stronger binding
Target sequence (chain): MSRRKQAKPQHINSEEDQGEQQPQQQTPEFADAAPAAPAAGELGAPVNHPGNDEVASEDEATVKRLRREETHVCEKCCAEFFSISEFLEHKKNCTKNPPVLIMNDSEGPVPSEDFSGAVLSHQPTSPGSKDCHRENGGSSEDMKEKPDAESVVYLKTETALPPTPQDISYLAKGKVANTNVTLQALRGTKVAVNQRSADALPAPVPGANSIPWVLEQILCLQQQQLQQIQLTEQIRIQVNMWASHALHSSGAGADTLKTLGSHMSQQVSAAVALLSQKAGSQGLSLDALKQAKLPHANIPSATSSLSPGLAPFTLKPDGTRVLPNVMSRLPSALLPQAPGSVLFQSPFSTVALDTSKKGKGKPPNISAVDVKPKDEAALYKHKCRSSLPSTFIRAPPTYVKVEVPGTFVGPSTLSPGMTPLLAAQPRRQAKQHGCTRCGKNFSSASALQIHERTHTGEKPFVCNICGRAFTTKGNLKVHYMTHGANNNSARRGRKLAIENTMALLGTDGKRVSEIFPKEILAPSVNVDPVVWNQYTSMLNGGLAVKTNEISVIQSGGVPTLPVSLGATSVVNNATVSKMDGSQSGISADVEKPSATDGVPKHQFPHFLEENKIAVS
Strand	E-score
CCAGTACG	-0.0386
CGACTGCC	-0.231
CTAACAAA	0.248
AACAGCTA	0.0615
AACATCGA	0.0778
ATGATCTA	0.195
AACAAGAA	0.207
CGTTCCAG	-0.0556
CGACGCAA	-0.306
CAGAAGAA	-0.0689
CAGCAACA	0.134
ACGAAGAA	0.209
CCGGAGGC	-0.355
ATTATGTA	0.382
GAGCGGGA	-0.0898
GACAAAGC	0.0216
TAGCTTGA	-0.183
CACCGCTA	-0.0621
CTTTCTAC	0.0646
GATCTGCC	-0.149
ACCAAAAT	0.139
GGCCAACA	-0.168
AATACTGT	0.247
AATGGTCC	0.0244

Excerpt of the above (study 4):
Strand	E-score
GAGCGGGA	-0.0898
GACAAAGC	0.0216
TAGCTTGA	-0.183
CACCGCTA	-0.0621
CTTTCTAC	0.0646
GATCTGCC	-0.149
